Results from different studies.
Compare with care: the assays were run in different laboratories. ± gives the spread as reported.

SMILES | cell line | assay | setting | CC50
CC[C@]1(O)C[C@H]2CN(CCc3c([nH]c4ccccc34)[C@@](C(=O)OC)(c3cc4c(cc3OC)N(C=O)[C@H]3[C@@](O)(C(=O)OC)[C@H](OC(C)=O)[C@]5(CC)C=CCN6CC[C@]43[C@@H]65)C2)C1 | HepG2-NTCP | viability | – | > 25 µM
COc1cccc(-c2nc(C)c(C(=O)Nc3ccc(OC)c(OC)c3)s2)c1 | HEK-293T | cell growth or viability, MTS | 72 h | > 300 µM
Cc1nc2ccc(CN(C)c3ccc(C(=O)N[C@@H](CCC(=O)O)C(=O)O)s3)cc2c(=O)[nH]1 | HepG2-NTCP | viability | – | > 25 µM
COc1cccc(-c2nc(C)c(C(=O)Nc3cc(OC)c(OC)c(OC)c3)s2)c1 | HEK-293T | cell growth or viability, MTS | 72 h | > 300 µM
O=C(NCc1c(F)cc(F)cc1F)c1cn2c(c(O)c1=O)C(=O)N1[C@H]3CC[C@H](C3)O[C@@H]1C2 | HOS | cell growth or viability | 48 h | > 250 µM
Ic1ccc(-c2nnn(C34CC5CC(CC(C5)C3)C4)n2)cc1 | MDCK | MTT | 72 h | 46 ± 3 µg/mL
COC(Cn1ccn2cc(C(=O)NCc3ccc(F)cc3F)c(=O)c(O)c2c1=O)OC | HOS | cell growth or viability | 48 h | > 250 µM
Nc1c(Br)cc([N+](=O)[O-])cc1-c1nnn(C23CC4CC(CC(C4)C2)C3)n1 | MDCK | MTT | 72 h | 167 µg/mL
Nc1ncn([C@H]2C[C@H](O)[C@@H](CO)O2)c(=O)n1 | HepG2-NTCP | viability | – | > 25 µM
COc1cccc(-c2nc(C)c(C(=O)Nc3ccccc3)s2)c1 | HEK-293T | cell growth or viability, MTS | 72 h | > 300 µM
CC(C)=CCC/C(C)=C/Cn1ccn2cc(C(=O)NCc3ccc(F)cc3F)c(=O)c(O)c2c1=O | HOS | cell growth or viability | 48 h | > 250 µM
Cc1c(C(=O)NN2CCCCC2)nn(-c2ccc(Cl)cc2Cl)c1-c1ccc(Cl)cc1 | HepG2-NTCP | viability | – | > 25 µM
COc1cccc(-c2nc(C)c(C(=O)Nc3ccc(Oc4ccccc4OC)cc3)s2)c1 | HEK-293T | cell growth or viability, MTS | 72 h | > 300 µM
C[C@@H]1CCO[C@H]2Cn3cc(C(=O)NCc4ccc(F)cc4F)c(=O)c(O)c3C(=O)N12 | HOS | cell growth or viability | 48 h | > 250 µM
Nc1cc(-c2nnn(C34CC5CC(CC(C5)C3)C4)n2)ccc1O | MDCK | MTT | 72 h | 36 ± 2 µg/mL
C#CCC(Cc1cnc2nc(N)nc(N)c2n1)c1ccc(C(=O)N[C@@H](CCC(=O)O)C(=O)O)cc1 (stereo partly shown) | HepG2-NTCP | viability | – | > 25 µM

Excerpt of the above:
SMILES | cell line | assay | setting | CC50
Cc1nc2ccc(CN(C)c3ccc(C(=O)N[C@@H](CCC(=O)O)C(=O)O)s3)cc2c(=O)[nH]1 | HepG2-NTCP | viability | – | > 25 µM
COc1cccc(-c2nc(C)c(C(=O)Nc3cc(OC)c(OC)c(OC)c3)s2)c1 | HEK-293T | cell growth or viability, MTS | 72 h | > 300 µM
O=C(NCc1c(F)cc(F)cc1F)c1cn2c(c(O)c1=O)C(=O)N1[C@H]3CC[C@H](C3)O[C@@H]1C2 | HOS | cell growth or viability | 48 h | > 250 µM
